Measured values from different studies.
Lines come from different studies, so protocols differ. Several values in a cell are separate wells, animals, samples, runs or records. ± marks the error that the study gave. In brackets after ≈: the same amount, converted by molar mass.
Organism: Staphylococcus aureus

`N=C(N)NCCC[C@H](NC(=O)[C@H](CCCNC(=N)N)NC(=O)[C@H](CCCNC(=N)N)NC(=O)[C@H](CCC(N)=O)NC(=O)[C@H](CCCNC(=N)N)NC(=O)[C@H](CCCNC(=N)N)NC(=O)[C@H](CCCCN)NC(=O)[C@H](CCCCN)NC(=O)[C@H](CCCNC(=N)N)NC(=O)CNC(=O)[C@H](Cc1ccc(O)cc1)NC(=O)[C@H](Cc1ccccc1)NC(=O)[C@H](Cc1ccccc1)NC(=O)[C@H](Cc1ccccc1)NC(=O)OCC1c2ccccc2-c2ccccc21)C(=O)O` — result for “IL-1β, IL-6, TNF-α”: “decreased” (29213, C57BL/6 mouse peritonitis-sepsis, serum; 10 mg/kg, 48 h; baseline: control).
`CC(C)[C@H]1NC(=O)[C@H](Cc2ccccc2)NC(=O)[C@@H](C(C)C)NC(=O)[C@@H](C)NC(=O)[C@H](CO)NC(=O)[C@@H](Cc2c(-c3ccc(-c4ccccc4)c(F)c3)[nH]c3ccccc23)NC(=O)[C@@H](CO)NC1=O` gave an MIC90 of over 50 µM (broth dilution).
With `COc1cc(OC)cc(B(O)O)c1` the biofilm formation was 51.4% and 55.9% and 55.4% (crystal violet; USA300 wild type; 5 µM; baseline: wild type untreated).
For `CC[C@H](C)[C@@H]1NC(=O)[C@H](CO)NC(=O)C(C)(CCCCN)NC(=O)[C@@H]2CSSC[C@@H](C(=O)N[C@@H](Cc3ccc(O)cc3)C(N)=O)NC(=O)[C@H](CCCCN)NC(=O)[C@@H]3CSSC[C@H](NC(=O)[C@H](CCCNC(=N)N)NC(=O)C(C)(CC(C)C)NC(=O)[C@H](CC(=O)O)NC(=O)[C@H](CC(=O)O)NC(=O)[C@H](CCC(=O)O)NC(=O)[C@H](CC(N)=O)NC(=O)[C@H](Cc4c[nH]c5ccccc45)NC(=O)C(C)(CC)NC(=O)CNC(=O)[C@H](CC(N)=O)NC(=O)[C@@H](NC(=O)CNC(=O)[C@H](Cc4ccccc4)NC(=O)CN)CSSC[C@H](NC(=O)[C@H](Cc4ccc(O)cc4)NC(=O)CNC(=O)CNC(=O)[C@H](CCCCN)NC(=O)[C@H](Cc4ccc(O)cc4)NC(=O)[C@H]4CCCN4C(=O)[C@@H]4CCCN4C1=O)C(=O)N[C@@H](C)C(=O)N[C@@H](CCCCN)C(=O)N1CCC[C@@H]1C(=O)NCC(=O)N[C@@H](Cc1ccccc1)C(=O)N[C@@H](C(C)C)C(=O)N3)C(=O)N[C@@H](Cc1c[nH]cn1)C(=O)NC(C)(C)C(=O)N[C@@H](Cc1c[nH]cn1)C(=O)N2` (some centres unmarked), the MBC was 4 µM (≈ 17.8 µg/mL) (USA300 MRSA; 24 h).
`CC(C)[C@H]1NC(=O)[C@H](Cc2ccccc2)NC(=O)[C@@H](C(C)C)NC(=O)[C@@H](C)NC(=O)[C@H](CO)NC(=O)[C@@H](Cc2c(-c3ccc(-c4ccccc4)cc3)[nH]c3ccccc23)NC(=O)[C@@H](CO)NC1=O` has an MIC90 of over 50 µM (broth dilution).
For `CCCNC(=O)[C@@H]1Cc2ccc(cc2)Oc2cc(ccc2O)[C@@H](NC(=O)[C@H](NC(=O)[C@H](CC(N)=O)NC(=O)[C@@H](Cc2ccc(O)cc2)NC(=O)[C@@H](CC(C)C)NC)c2ccccc2)C(=O)N[C@@H](Cc2ccccc2)C(=O)N1`, the IC50 was over 40 µM (bacterial growth).
With `CC[C@H](C)[C@@H]1NC(=O)[C@H](CO)NC(=O)[C@H](CCCCN)NC(=O)[C@@H]2CSSC[C@@H](C(=O)N[C@@H](Cc3ccc(O)cc3)C(N)=O)NC(=O)[C@H](CCCCN)NC(=O)[C@@H]3CSSC[C@H](NC(=O)[C@H](CCCNC(=N)N)NC(=O)[C@H](CC(C)C)NC(=O)[C@H](CC(=O)O)NC(=O)[C@H](CC(=O)O)NC(=O)[C@H](CCC(=O)O)NC(=O)[C@H](CC(N)=O)NC(=O)[C@H](Cc4c[nH]c5ccccc45)NC(=O)[C@@H]4CCCN4C(=O)CNC(=O)[C@H](CC(N)=O)NC(=O)[C@@H](NC(=O)CNC(=O)[C@H](Cc4ccccc4)NC(=O)CN)CSSC[C@H](NC(=O)[C@H](Cc4ccc(O)cc4)NC(=O)CNC(=O)CNC(=O)[C@H](CCCCN)NC(=O)[C@H](Cc4ccc(O)cc4)NC(=O)CNC(=O)[C@H](CCCCN)NC1=O)C(=O)N[C@@H](C)C(=O)N[C@@H](CCCCN)C(=O)NCC(=O)NCC(=O)N[C@@H](Cc1ccccc1)C(=O)N[C@@H](C(C)C)C(=O)N3)C(=O)N[C@@H](Cc1c[nH]cn1)C(=O)N[C@@H](CC(N)=O)C(=O)N[C@@H](Cc1c[nH]cn1)C(=O)N2` the MBC was 0.5 µM (≈ 2.21 µg/mL) (ATCC 49775; 24 h).
The inhibition zone of `Cc1ccc2nc(C)c(C(=O)NCc3ccccc3)n2c1` is reported as 0 mm (microbial growth; SG511; 2 mM).
`CC[C@H](C)[C@@H]1NC(=O)[C@@H](CCCNC(=N)N)NC(=O)[C@@H](NC(=O)[C@@H](CC(C)C)NC(=O)[C@H](C)NC(=O)[C@H](C)NC(=O)[C@@H]2CCCN2C(=O)[C@@H](CC(C)C)NC(=O)[C@@H](NC(=O)[C@@H](CCCNC(=N)N)NC(=O)[C@@H](CC(C)C)NC(=O)[C@@H](CC(C)C)NC(=O)[C@@H](NC(=O)[C@@H](CCCNC(=N)N)NC(=O)[C@@H](CC(C)C)NC(=O)[C@@H](NC(=O)[C@@H](NC(=O)CNC(=O)[C@@H](CC(C)C)NC(=O)[C@@H](N)Cc2ccccc2)[C@@H](C)O)C(C)C)C(C)C)C(C)C)CSSC[C@@H](C(=O)O)NC(=O)[C@@H](CCCNC(=N)N)NC(=O)[C@@H](CCCNC(=N)N)NC(=O)[C@H](Cc2ccccc2)NC1=O` gave a respiration-enhancing concentration of 8 µM (resazurin reduction; MRSA NCTC 12493).
`CCCNC(=O)[C@H](Cc1ccc(O)cc1)NC(=O)[C@H](Cc1ccc(O)cc1)NC(=O)[C@H](NC(=O)[C@@H](NC(=O)[C@H](CC(N)=O)NC(=O)[C@@H](Cc1ccc(O)cc1)NC(=O)[C@@H](CC(C)C)NC)c1ccc(O)cc1)c1ccc(O)cc1` has an IC50 of over 40 µM (bacterial growth).
The MBC of `CCC(=O)OCCSC[C@H](N)C(=O)N[C@H](CCN)C(=O)N[C@@H](CCN)C(=O)N[C@@H](CCN)C(=O)N[C@@H](CC(C)C)C(=O)N[C@H](Cc1ccccc1)C(=O)N[C@@H](CCN)C(=O)N[C@@H](CCN)C(=O)N[C@@H](CC(C)C)C(N)=O` is reported as over 128 µM (ATCC 6538; 24 h, 37 °C).
The MIC90 of `CC(C)[C@H]1NC(=O)[C@H](Cc2ccccc2)NC(=O)[C@@H](C(C)C)NC(=O)[C@@H](C)NC(=O)[C@H](CO)NC(=O)[C@@H](Cc2c(-c3ccc(-c4ccc5ccccc5c4)cc3)[nH]c3ccccc23)NC(=O)[C@@H](C)NC1=O` is reported as over 50 µM (broth dilution).
`CC[C@H](C)[C@H](NC(=O)[C@H](CC(C)C)NC(=O)[C@H](CC(=O)O)NC(=O)[C@H](CCCNC(=N)N)NC(=O)[C@H](Cc1c[nH]c2ccccc12)NC(=O)[C@@H](N)CC(C)C)C(=O)N[C@@H](CS)C(=O)N[C@@H](CC(C)C)C(=O)N[C@@H](CS)C(=O)N[C@@H](CCCNC(=N)N)C(=O)N[C@@H](CC(N)=O)C(=O)N[C@@H](CCCNC(=N)N)C(=O)N[C@@H](CCCNC(=N)N)C(=O)N[C@@H](CS)C(=O)N[C@@H](CC(N)=O)C(=O)N[C@@H](CCCNC(=N)N)C(=O)NCC(=O)N[C@@H](CCC(N)=O)C(=O)N[C@@H](CC(C)C)C(=O)N[C@@H](Cc1ccccc1)C(=O)N1CCC[C@H]1C(=O)NCC(=O)N[C@@H](Cc1c[nH]c2ccccc12)C(=O)N[C@@H](CS)C(=O)N1CCC[C@H]1C(=O)NCC(=O)N[C@@H](Cc1c[nH]c2ccccc12)C(=O)N[C@@H](Cc1c[nH]c2ccccc12)C(=O)N[C@@H](CC(C)C)C(=O)N[C@@H](CCCNC(=N)N)C(=O)N[C@@H](CS)C(=O)N[C@@H](CS)C(=O)N[C@@H](CCCNC(=N)N)C(=O)N[C@@H](CCCNC(=N)N)C(N)=O` has a bactericidal rate of 92% (colony count; 50 µg/mL, 2 h, 37 °C, pretreated trypsin intestinal fluid, together with: trypsin 1 mg/mL).
`O[C@]12C=C(c3nccc4c3[nH]c3ccccc34)[C@@H]3CCN(CCCC/C=C\CC1)C[C@@]31C[C@@H]3/C=C\CCCCN3[C@H]12` gave an IC50 of 1.15 µg/mL (growth; ATCC 43300, MRSA; 5% bovine calf serum).
For `CC1COC2=C1C(=O)C(=O)c1c2ccc2c1C(OC(=O)CNC(=O)CN)CCC2(C)C` (mixture of isomers), “inhibition zone diameter” read 16 ± 0.5 mm (10 µmol/mL, 48 h, 10 µL on 6 mm disc).
`Oc1c(Br)cc(Br)c2nc3cc(F)c(F)cc3nc12` has an MBEC of 25 µM (biofilm eradication, Calgary biofilm device; MRSA BAA-1707, BAA-44).
With `CC[C@H](C)[C@H](NC(=O)[C@H](Cc1c[nH]c2ccccc12)NC(=O)[C@H](CCCCN)NC(=O)[C@H](CC(C)C)NC(=O)[C@@H](NC(=O)[C@@H](NC(=O)CNC(=O)[C@H](CCCCN)NC(=O)[C@H](Cc1c[nH]cn1)NC(=O)[C@H](CCCCN)NC(=O)[C@H](Cc1c[nH]c2ccccc12)NC(=O)[C@H](C)NC(=O)[C@H](CC(C)C)NC(=O)[C@H](CO)NC(=O)[C@@H](NC(=O)[C@H](Cc1ccc(O)cc1)NC(=O)[C@H](CCCCN)NC(=O)[C@H](CCC(N)=O)NC(=O)CNC(=O)[C@H](CCCCN)NC(=O)[C@@H](NC(=O)[C@H](C)NC(=O)[C@H](CC(C)C)NC(=O)[C@H](Cc1ccccc1)NC(=O)[C@H](CCC(N)=O)NC(=O)[C@@H](NC(=O)[C@H](CC(C)C)NC(=O)[C@H](CCCCN)NC(=O)[C@H](CCSC)NC(=O)[C@H](Cc1ccccc1)NC(=O)[C@H](C)NC(=O)[C@H](C)NC(=O)[C@@H](N)CCSC)[C@@H](C)CC)[C@@H](C)O)C(C)C)[C@@H](C)O)[C@@H](C)CC)C(=O)N[C@@H](CC(N)=O)C(N)=O` the MIC was 6 µg/mL (≈ 1.51 µM) (broth microdilution; ATCC 6538; 24 h, 37 °C).
`CCc1ccn2c(C(=O)NCc3ccc(C)cc3)c(C)nc2c1` has an inhibition zone of 0 mm (microbial growth; SG511; 2 mM).
With `O=c1c(O)ccc(Br)cc1O` the MIC80 was 17.6 µM (≈ 3.82 µg/mL) (microbial growth, broth dilution; ATCC29213).
`CC(C)C[C@H](NC(=O)[C@H](CC(C)C)NC(=O)[C@H](CCCCN)NC(=O)[C@H](Cc1ccccc1)NC(=O)[C@@H](NC(=O)[C@H](CCCNC(=N)N)NC(=O)[C@@H](N)CCCCN)C(C)C)C(=O)N[C@@H](CCCCN)C(=O)N[C@@H](CCCNC(=N)N)C(=O)N[C@@H](Cc1ccc(O)cc1)C(=O)N[C@@H](Cc1c[nH]c2ccccc12)C(=O)N[C@@H](CCCNC(=N)N)C(=O)N[C@@H](CCC(N)=O)C(=O)N[C@@H](CC(C)C)C(=O)N[C@@H](CCCCN)C(=O)N[C@@H](CCCCN)C(=O)N1CCC[C@H]1C(=O)N[C@H](C(=O)N[C@@H](CCCNC(=N)N)C(=O)NCCOCCOCC(=O)O)C(C)C` has an ROS level of 10 to 12 fold (DCFH-DA fluorescence; concentration not given; baseline: untreated).

Repeated from above:
With `CC[C@H](C)[C@H](NC(=O)[C@H](Cc1c[nH]c2ccccc12)NC(=O)[C@H](CCCCN)NC(=O)[C@H](CC(C)C)NC(=O)[C@@H](NC(=O)[C@@H](NC(=O)CNC(=O)[C@H](CCCCN)NC(=O)[C@H](Cc1c[nH]cn1)NC(=O)[C@H](CCCCN)NC(=O)[C@H](Cc1c[nH]c2ccccc12)NC(=O)[C@H](C)NC(=O)[C@H](CC(C)C)NC(=O)[C@H](CO)NC(=O)[C@@H](NC(=O)[C@H](Cc1ccc(O)cc1)NC(=O)[C@H](CCCCN)NC(=O)[C@H](CCC(N)=O)NC(=O)CNC(=O)[C@H](CCCCN)NC(=O)[C@@H](NC(=O)[C@H](C)NC(=O)[C@H](CC(C)C)NC(=O)[C@H](Cc1ccccc1)NC(=O)[C@H](CCC(N)=O)NC(=O)[C@@H](NC(=O)[C@H](CC(C)C)NC(=O)[C@H](CCCCN)NC(=O)[C@H](CCSC)NC(=O)[C@H](Cc1ccccc1)NC(=O)[C@H](C)NC(=O)[C@H](C)NC(=O)[C@@H](N)CCSC)[C@@H](C)CC)[C@@H](C)O)C(C)C)[C@@H](C)O)[C@@H](C)CC)C(=O)N[C@@H](CC(N)=O)C(N)=O` the MIC was 6 µg/mL (≈ 1.51 µM) (broth microdilution; ATCC 6538; 24 h, 37 °C).
With `COc1cc(OC)cc(B(O)O)c1` the biofilm formation was 51.4% and 55.9% and 55.4% (crystal violet; USA300 wild type; 5 µM; baseline: wild type untreated).
